Measured values gathered from unrelated publications.
Protocols differ between the studies behind these lines. Numbers after ± are the reported error.
Eif4e: Eukaryotic translation initiation factor 4E (Eif4e, Mus musculus, UniProt P63073)
UniProt P63073, sequence (whole entry, looked up): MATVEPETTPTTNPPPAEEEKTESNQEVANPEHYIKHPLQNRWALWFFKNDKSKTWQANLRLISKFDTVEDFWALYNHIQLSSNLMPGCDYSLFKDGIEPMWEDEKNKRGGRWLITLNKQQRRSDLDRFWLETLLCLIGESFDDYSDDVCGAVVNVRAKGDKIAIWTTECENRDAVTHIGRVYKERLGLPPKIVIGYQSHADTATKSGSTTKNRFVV
POLB: DNA polymerase beta (POLB, Homo sapiens, UniProt P06746)
UniProt Q8NEB9, sequence (whole entry, looked up): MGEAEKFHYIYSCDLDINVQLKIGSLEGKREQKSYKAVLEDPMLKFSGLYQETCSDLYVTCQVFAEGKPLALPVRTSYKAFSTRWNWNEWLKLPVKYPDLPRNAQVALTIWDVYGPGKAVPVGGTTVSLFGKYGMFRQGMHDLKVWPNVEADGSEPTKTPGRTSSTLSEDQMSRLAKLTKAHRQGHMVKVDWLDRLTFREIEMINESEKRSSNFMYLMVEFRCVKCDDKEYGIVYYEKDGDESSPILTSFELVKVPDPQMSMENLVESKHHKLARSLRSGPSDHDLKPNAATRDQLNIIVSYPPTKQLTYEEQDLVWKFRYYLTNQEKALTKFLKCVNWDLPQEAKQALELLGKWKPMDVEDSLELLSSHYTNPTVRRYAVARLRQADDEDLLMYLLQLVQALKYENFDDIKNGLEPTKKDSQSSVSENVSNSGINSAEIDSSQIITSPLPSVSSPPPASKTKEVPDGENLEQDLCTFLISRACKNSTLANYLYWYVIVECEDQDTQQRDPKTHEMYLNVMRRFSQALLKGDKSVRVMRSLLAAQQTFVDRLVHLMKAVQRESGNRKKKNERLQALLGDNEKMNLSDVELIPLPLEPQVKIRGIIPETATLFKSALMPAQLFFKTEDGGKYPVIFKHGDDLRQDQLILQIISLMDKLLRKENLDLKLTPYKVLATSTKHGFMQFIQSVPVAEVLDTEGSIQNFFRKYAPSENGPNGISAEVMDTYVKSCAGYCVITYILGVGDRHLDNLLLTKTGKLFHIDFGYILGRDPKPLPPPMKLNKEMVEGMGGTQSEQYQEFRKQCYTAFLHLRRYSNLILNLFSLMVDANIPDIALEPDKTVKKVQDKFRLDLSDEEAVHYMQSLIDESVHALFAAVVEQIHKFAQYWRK
UniProt P42768, sequence (whole entry, looked up): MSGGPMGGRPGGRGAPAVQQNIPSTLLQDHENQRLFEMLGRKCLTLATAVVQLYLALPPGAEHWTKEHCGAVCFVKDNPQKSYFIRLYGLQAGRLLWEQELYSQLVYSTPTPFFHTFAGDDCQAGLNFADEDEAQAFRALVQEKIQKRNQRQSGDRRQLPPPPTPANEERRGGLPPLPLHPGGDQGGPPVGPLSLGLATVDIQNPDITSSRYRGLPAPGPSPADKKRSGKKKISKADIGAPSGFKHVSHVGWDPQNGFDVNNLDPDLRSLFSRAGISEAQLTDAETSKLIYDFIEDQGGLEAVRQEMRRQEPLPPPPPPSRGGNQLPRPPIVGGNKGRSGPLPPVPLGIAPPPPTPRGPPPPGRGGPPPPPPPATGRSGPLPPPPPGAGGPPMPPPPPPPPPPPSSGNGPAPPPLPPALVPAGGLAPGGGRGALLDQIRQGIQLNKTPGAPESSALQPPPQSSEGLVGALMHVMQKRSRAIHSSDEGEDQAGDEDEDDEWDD
UniProt O00214, sequence (whole entry, looked up): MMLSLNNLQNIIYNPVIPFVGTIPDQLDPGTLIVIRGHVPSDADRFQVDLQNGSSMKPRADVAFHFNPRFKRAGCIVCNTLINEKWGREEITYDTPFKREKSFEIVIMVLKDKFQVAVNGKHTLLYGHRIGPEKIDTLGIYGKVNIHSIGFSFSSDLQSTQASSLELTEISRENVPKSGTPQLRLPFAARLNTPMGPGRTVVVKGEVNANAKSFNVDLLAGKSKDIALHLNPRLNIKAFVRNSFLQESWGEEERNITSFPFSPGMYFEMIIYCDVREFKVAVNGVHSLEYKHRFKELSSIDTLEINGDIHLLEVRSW
UniProt Q92793, sequence (whole entry, looked up): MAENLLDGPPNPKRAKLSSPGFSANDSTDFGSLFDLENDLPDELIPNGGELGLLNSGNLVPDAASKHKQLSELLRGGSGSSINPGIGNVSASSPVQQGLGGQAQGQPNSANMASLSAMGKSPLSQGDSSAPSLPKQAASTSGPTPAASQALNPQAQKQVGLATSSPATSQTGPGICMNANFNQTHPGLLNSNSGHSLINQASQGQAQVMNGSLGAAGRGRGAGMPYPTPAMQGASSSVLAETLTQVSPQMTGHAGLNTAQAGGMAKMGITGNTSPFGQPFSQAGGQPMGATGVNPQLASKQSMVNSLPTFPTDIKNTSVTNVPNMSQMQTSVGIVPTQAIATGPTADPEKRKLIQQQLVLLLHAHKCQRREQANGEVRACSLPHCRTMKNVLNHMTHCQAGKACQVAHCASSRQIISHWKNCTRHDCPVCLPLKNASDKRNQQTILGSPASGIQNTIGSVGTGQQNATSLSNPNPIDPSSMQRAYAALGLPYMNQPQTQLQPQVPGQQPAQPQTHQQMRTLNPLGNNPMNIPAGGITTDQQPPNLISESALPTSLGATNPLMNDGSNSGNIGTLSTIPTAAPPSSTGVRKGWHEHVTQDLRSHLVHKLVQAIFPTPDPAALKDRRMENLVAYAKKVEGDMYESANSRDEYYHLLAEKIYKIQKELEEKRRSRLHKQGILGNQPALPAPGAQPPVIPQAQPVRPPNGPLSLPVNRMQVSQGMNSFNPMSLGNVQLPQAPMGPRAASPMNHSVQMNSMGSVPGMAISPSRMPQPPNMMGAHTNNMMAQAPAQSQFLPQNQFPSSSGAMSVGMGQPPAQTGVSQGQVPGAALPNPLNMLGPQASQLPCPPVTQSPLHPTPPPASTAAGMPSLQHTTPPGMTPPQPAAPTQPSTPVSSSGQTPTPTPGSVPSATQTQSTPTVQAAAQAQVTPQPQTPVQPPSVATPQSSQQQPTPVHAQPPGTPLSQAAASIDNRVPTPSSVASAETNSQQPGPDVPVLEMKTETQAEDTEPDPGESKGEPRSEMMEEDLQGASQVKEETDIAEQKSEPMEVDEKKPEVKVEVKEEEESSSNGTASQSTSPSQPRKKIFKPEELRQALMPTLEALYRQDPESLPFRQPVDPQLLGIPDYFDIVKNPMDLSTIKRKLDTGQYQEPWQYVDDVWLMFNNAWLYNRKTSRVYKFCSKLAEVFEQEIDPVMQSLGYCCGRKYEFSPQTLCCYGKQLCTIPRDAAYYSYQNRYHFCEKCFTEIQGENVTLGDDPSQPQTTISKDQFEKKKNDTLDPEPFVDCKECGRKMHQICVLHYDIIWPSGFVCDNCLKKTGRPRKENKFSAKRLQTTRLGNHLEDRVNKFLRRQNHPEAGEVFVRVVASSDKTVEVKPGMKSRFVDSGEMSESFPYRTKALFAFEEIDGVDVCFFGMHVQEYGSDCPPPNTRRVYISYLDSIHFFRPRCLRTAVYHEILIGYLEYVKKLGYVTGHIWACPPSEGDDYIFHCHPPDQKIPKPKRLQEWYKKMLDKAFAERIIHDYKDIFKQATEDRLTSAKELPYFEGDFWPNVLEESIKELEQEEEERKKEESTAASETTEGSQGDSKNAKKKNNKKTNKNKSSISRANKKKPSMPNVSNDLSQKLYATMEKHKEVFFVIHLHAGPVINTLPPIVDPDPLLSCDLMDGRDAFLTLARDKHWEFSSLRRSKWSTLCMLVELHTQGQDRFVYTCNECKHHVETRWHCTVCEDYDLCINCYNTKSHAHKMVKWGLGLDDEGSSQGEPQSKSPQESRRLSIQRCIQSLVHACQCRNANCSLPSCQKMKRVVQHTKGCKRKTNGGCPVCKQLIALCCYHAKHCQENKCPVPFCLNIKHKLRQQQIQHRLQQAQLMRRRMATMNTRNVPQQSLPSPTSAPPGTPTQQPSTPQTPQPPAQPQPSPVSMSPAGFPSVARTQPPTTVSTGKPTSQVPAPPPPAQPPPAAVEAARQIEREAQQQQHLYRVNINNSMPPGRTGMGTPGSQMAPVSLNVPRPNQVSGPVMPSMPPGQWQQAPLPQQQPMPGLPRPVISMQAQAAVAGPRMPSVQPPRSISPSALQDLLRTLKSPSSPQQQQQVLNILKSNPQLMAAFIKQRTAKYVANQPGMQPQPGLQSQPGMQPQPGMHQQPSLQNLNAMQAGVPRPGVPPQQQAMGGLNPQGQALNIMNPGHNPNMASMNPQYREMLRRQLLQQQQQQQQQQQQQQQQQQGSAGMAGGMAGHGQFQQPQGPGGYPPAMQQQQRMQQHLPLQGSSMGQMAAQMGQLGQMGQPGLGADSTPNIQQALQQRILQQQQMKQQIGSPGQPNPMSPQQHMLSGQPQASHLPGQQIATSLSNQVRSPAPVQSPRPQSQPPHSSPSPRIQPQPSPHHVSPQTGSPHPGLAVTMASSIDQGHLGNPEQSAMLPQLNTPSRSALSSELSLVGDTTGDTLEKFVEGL
UniProt P10145, sequence (whole entry, looked up): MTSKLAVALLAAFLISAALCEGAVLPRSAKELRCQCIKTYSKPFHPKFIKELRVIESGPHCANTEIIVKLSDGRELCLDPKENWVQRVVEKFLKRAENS
UniProt P00558, sequence (whole entry, looked up): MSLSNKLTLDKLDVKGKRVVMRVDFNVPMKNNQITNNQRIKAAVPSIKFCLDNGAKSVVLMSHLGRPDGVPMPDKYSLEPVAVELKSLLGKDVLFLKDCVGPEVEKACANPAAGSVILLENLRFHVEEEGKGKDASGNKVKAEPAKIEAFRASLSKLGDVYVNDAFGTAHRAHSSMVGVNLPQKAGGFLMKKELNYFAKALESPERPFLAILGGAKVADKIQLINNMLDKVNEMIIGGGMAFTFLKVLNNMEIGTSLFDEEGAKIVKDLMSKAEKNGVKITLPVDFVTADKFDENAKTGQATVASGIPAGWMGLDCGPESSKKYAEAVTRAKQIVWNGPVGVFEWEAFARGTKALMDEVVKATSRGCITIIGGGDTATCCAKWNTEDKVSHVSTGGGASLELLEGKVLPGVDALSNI

C[n+]1cn(C2OC(COP(=O)(O)OP(=O)([O-])C(Cl)(Cl)P(=O)(O)O)C(O)C2O)c2nc(N)nc(O)c21 (stereo not drawn)  Kd (Eukaryotic translation initiation factor 4E, residues 28-217 (Eif4e, Mus musculus, UniProt P63073); binding, fluorescence quenching titration; pH 7.2, 20 °C): 0.00532 ± 0.000209 µM
CC(C)CCCC(C)C1CCC2C3CC=C4CC(OC(=O)CCC(=O)NCCCCCCNC(=O)O[C@H]5[C@@H](O)[C@H](n6cnc7c(=O)[nH]c(N)nc76)O[C@@H]5COP(=O)(O)OP(=O)(O)OP(=O)([S-])OC[C@H]5O[C@@H](n6c[n+](C)c7c(O)nc(N)nc76)[C@H](O)[C@@H]5O)CCC4(C)C3CCC12C (mixture of isomers)  Kd (Eif4e; cap analogue binding, pyrene fluorescence competition; 20 °C): 0.026 µM
Nc1nc2c(ncn2[C@H]2C[C@H](O)[C@@H](COP(=O)(O)OP(=O)(O)[C@H](Cl)P(=O)(O)O)O2)c(=O)[nH]1  Kd (DNA polymerase beta (POLB, Homo sapiens, UniProt P06746, R183A); substrate, pre-steady-state kinetics; incorporation opposite dC in gapped DNA): 110 ± 3 µM
C[n+]1cn(C2OC(COP(=O)([O-])OP(=O)(O)OP(=O)(O)OCC3OC(n4cnc5c(=O)[nH]c(N)nc54)C(O)C3O)C(O)C2O)c2nc(NCc3cc(-c4ccccc4)no3)[nH]c(=O)c21 (stereo not drawn)  Kd (Eif4e; differential scanning fluorimetry): 2.61 µM
CC[C@H](C)[C@@H]1NC(=O)[C@H](C)NC(=O)[C@H](C)NC(=O)[C@H]([C@@H](C)O)NC(=O)[C@H](Cc2ccccc2)NC(=O)[C@@H]2CSSC[C@@H]3NC(=O)[C@H](C(C)C)NC(=O)[C@H](CCCCN)NC(=O)[C@H](CO)NC(=O)[C@H](C)NC(=O)[C@@H]4CSSC[C@H](NC(=O)[C@H](CO)NC(=O)[C@H](CCC(=O)O)NC(=O)CNC(=O)[C@H](CSSC[C@H](NC(=O)CNC1=O)C(=O)N[C@@H](CO)C(=O)N4)NC(=O)[C@@H]1CCCN1C(=O)[C@H](Cc1ccccc1)NC(=O)CNC(=O)[C@H](CC(N)=O)NC(=O)[C@H](CCCCN)NC(=O)[C@H](Cc1ccc(O)cc1)NC3=O)C(=O)N[C@@H](C(C)C)C(=O)N[C@@H](Cc1ccc(O)cc1)C(=O)N[C@@H](CC(C)C)C(=O)N1CCC[C@H]1C(=O)N2  Kd (POPC/POPE lipid membrane; membrane binding, surface plasmon resonance; POPC/POPE 80:20 vesicles; pH 7.4): 5.18 ± 0.81 µM
Nc1nc2c(ncn2C2CC(O)C(COP(=O)(O)OP(=O)(O)C(F)P(=O)(O)O)O2)c(=O)[nH]1 (mixture of isomers)  Kd (POLB; nucleotide binding, substrate, single turnover kinetics; 37 °C, dG misincorporation opposite A): 786 ± 293 µM
CC[C@H](C)[C@@H]1NC(=O)[C@H](C)NC(=O)[C@H](C)NC(=O)[C@H]([C@@H](C)O)NC(=O)[C@H](Cc2ccccc2)NC(=O)[C@@H]2CSSC[C@@H]3NC(=O)[C@H](C(C)C)NC(=O)[C@H](CCCCN)NC(=O)[C@H](CO)NC(=O)[C@H](CCCCN)NC(=O)[C@@H]4CSSC[C@H](NC(=O)[C@H](CO)NC(=O)[C@H](CCC(=O)O)NC(=O)CNC(=O)[C@H](CSSC[C@H](NC(=O)CNC1=O)C(=O)N[C@@H](CO)C(=O)N4)NC(=O)[C@@H]1CCCN1C(=O)[C@H](Cc1ccccc1)NC(=O)[C@H](C)NC(=O)[C@H](CC(N)=O)NC(=O)[C@H](CCCCN)NC(=O)[C@H](Cc1ccc(O)cc1)NC3=O)C(=O)N[C@@H](C(C)C)C(=O)N[C@@H](Cc1ccc(O)cc1)C(=O)N[C@@H](CC(C)C)C(=O)N1CCC[C@H]1C(=O)N2  Kd (POPC/POPE lipid membrane; membrane binding, surface plasmon resonance; POPC/POPE 80:20 vesicles; pH 7.4): 5.54 ± 0.19 µM
C=CC(=O)N1CCCC(n2c(=O)c3ncccc3n(Cc3ccc(Oc4ccccc4)cc3)c2=O)C1 (stereo not drawn)  Kd (WAS (Homo sapiens, UniProt P42768); binding, SPR): 110 µM
CCOC(=O)c1nc2cc(Cl)c(Cl)cc2nc1N1CCN(C(=O)Nc2ccc(N3CCNCC3)cc2)CC1  Kd (PGK1 (Homo sapiens, UniProt P00558); binding, MST): 0.0991 µM
N#Cc1ccc(-c2cc(=O)c3ccc4[nH]c(C(F)(F)F)nc4c3o2)cc1  Kd (NTRK2 (Homo sapiens, UniProt Q16620); binding, SPR): 0.0802 µM
Nc1nc2c(ncn2[C@H]2C[C@H](O)[C@@H](COP(=O)(O)OP(=O)(O)CP(=O)(O)O)O2)c(=O)[nH]1  Kd (DNA polymerase beta (POLB, Homo sapiens, UniProt P06746, I260M); nucleotide binding, substrate, single turnover kinetics; 37 °C, dG misincorporation opposite A): 515 ± 194 µM
CCc1cc2c3c(c1CC)O[C@H](CO)[C@H](O)[C@@H]3OC2  Kd (Galectin-8 (LGALS8, Homo sapiens, UniProt O00214); cell-free assay, FP): ~10000 µM
Cc1cn([C@H]2C[C@H](O)[C@@H](COP(=O)(O)OP(=O)(O)C(Br)(Br)P(=O)(O)O)O2)c(=O)[nH]c1=O  Kd (POLB; dNTP binding, substrate, single-turnover kinetics; single-nucleotide gapped DNA; 37 °C, wild type, correct incorporation, added: dTTP opposite template A): 71.7 ± 10.8 µM
NS(=O)(=O)c1c(F)c(F)c(SCCO)c(NC(c2ccccc2)C(O)c2ccccc2)c1F (stereo not drawn)  Kd (CA2 (Homo sapiens, UniProt P00918, A65S/F130A/I91T/L203N/N67K/V134S); pH 7): 0.046 µM
Cc1cc(NCC(=O)C(C)(C)C)c2nc(N3CCOC[C@H]3C)cc(=O)n2c1  Kd (PIK3C3 (Homo sapiens, UniProt Q8NEB9); binding, SPR): 0.0527 µM
CC(=O)[C@@]1(O)CC[C@H]2[C@@H]3CCC4=CC(=O)CC[C@]4(C)[C@H]3CC[C@@]21C  Kd (mouse anti-cortisol Fab 17; native MS titration; 200 mM ammonium acetate; 1.5% DMSO, 0.5% methanol, added: Fab 100 nM): 1.44 ± 0.14 µM
N[C@H]1[C@H](O[C@H]2[C@H](O)[C@@H](N)[C@H](O[C@H]3[C@H](O)[C@@H](N)[C@H](O[C@H]4[C@H](O)[C@@H](N)[C@H](O[C@H]5[C@H](O)[C@@H](N)C(O)O[C@@H]5CO)O[C@@H]4CO)O[C@@H]3CO)O[C@@H]2CO)O[C@H](CO)[C@@H](O)[C@@H]1O (stereo partly drawn)  Kd (Serine/threonine receptor-like kinase NFP, ectodomain (NFP, Medicago truncatula, UniProt Q0GXS4); bio-layer interferometry; 100 to 1.56 µM, immobilized biotin conjugate): no binding
CC(=O)N[C@@H]1[C@@H](O[C@@H]2O[C@H](C(=O)O)[C@@H](OS(=O)(=O)O)[C@H](OS(=O)(=O)O)[C@H]2OS(=O)(=O)O)[C@H](OS(=O)(=O)O)[C@@H](COS(=O)(=O)O)O[C@H]1N=[N+]=[N-]  Kd (Interleukin-8 (CXCL8, Homo sapiens, UniProt P10145); ligand displacement, FP): 117 µM
Nc1nc2c(ncn2[C@H]2C[C@H](O)[C@@H](COP(=O)(O)OP(=O)(O)[C@H](F)P(=O)(O)O)O2)c(=O)[nH]1  Kd (POLB; substrate, quench-flow kinetics; pH 8.0, 37 °C, incorporation opposite C in gapped DNA): 6.2 ± 2.2 µM
CC[C@H](C)[C@H](NC(=O)[C@H](CC(=O)O)NC(=O)[C@H](CO)NC(C)=O)C(=O)N[C@@H](CSCc1ccccc1)C(=O)N[C@@H](CC(=O)O)C(=O)N[C@@H](Cc1ccccc1)C(=O)N[C@H](C(=O)N[C@@H](CC(C)C)C(=O)N[C@@H](CCCCN)C(=O)N[C@@H](CC(N)=O)C(=O)N[C@@H](Cc1ccc(O)cc1)C(=O)N1CCC[C@H]1C(N)=O)C(C)C  Kd (CREB-binding protein, KIX domain (CREBBP, Homo sapiens, UniProt Q92793); binding, fluorescence polarisation): 8.3 ± 1.3 µM
COc1ccc2c(c1)C=C1Cn3c-2c(C2CCCCC2)c2ccc(cc23)C(=O)NS(=O)(=O)N(C)CCOCCN(C)C1=O  Kd (Probable UDP-N-acetylglucosamine--peptide N-acetylglucosaminyltransferase SPINDLY (SPY, Arabidopsis thaliana, UniProt Q96301); binding, biolayer interferometry; added: SPY wild-type): 6.31 µM
